Assay results collected from several papers.
Protocols differ between the studies behind these lines. Several values in a cell are separate wells, animals, samples, runs or records. ± gives the spread as reported.
kasA: 3-oxoacyl-[acyl-carrier-protein] synthase 1 (kasA, Mycobacterium tuberculosis, UniProt P9WQD9)

For `C[C@]12CC[C@@H](O)C[C@@H]1CC[C@@H]1[C@@H]2CC[C@]2(C)[C@@H]([N+](=O)[O-])CC[C@@H]12`, the Emax was 98 ± 6% ([3H]flunitrazepam binding, positive modulator; rat cerebral cortex homogenate; baseline: allopregnanolone Emax).
The ΔTm of `CCCc1nn(C)c2c(=O)[nH]c(-c3cc(S(=O)(=O)N4CCN(C)CC4)ccc3OCC)nc12` is reported as 6.66 °C (kasA; thermal stabilization, nanoDSF; 100 µM).
With `c1ccc2cc([C@]34CNC[C@H]3C4)ccc2c1` the dopamine uptake was 0.296% and -0.00638% and 0.535% (SLC6A3 (Homo sapiens, UniProt Q01959, V152A); inhibitor, [3H]dopamine uptake; 100 µM, V152A mutant; baseline: no inhibitor).
`COc1ccc(N2C(=O)N(c3c(C)cccc3Cl)Cc3cnc(Nc4ccc(C5CCN(C)CC5)cc4OC)nc32)nc1` has an inhibition of 7% (STK3 (Homo sapiens, UniProt Q13188); kinase activity, inhibitor; 0.5 µM, MST2).
Under “log2 fold change”, `CC[C@H](C)[C@H](NC(=O)CNC(=O)[C@@H](N)CCCCN)C(=O)N[C@@H](CC(C)C)C(=O)N[C@@H](CCCCN)C(=O)N[C@@H](CCCNC(=N)N)C(=O)N[C@@H](CCC(=O)O)C(=O)N[C@@H](CCCCN)C(=O)N[C@@H](CCCNC(=N)N)C(=O)N[C@@H](CC(C)C)C(=O)N[C@@H](CCCNC(=N)N)C(=O)N[C@@H](CCCNC(=N)N)C(=O)N[C@@H](CCCCN)C(=O)N[C@@H](CC(N)=O)C(=O)N[C@H](C(=O)N[C@@H](Cc1c[nH]cn1)C(=O)N[C@@H](Cc1c[nH]c2ccccc12)C(=O)N1CCC[C@H]1C(=O)N[C@@H](CCC(=O)O)C(=O)N[C@@H](CCC(=O)O)C(=O)NCC(=O)N[C@@H](CCCCN)C(=O)N[C@@H](CC(C)C)C(=O)N[C@@H](CCCNC(=N)N)C(=O)N[C@@H](CCC(=O)O)C(=O)N[C@@H](Cc1ccc(O)cc1)C(=O)N[C@@H](Cc1ccccc1)C(=O)N[C@@H](Cc1ccc(O)cc1)C(=O)N[C@@H](Cc1ccccc1)C(=O)N[C@@H](CCC(=O)O)C(=O)N[C@@H](CC(C)C)C(=O)N[C@@H](CC(=O)O)C(=O)N[C@@H](CCC(=O)O)C(=O)N[C@@H](C)C(=O)N[C@@H](CCC(=O)O)C(=O)N[C@@H](CCCNC(=N)N)C(=O)N[C@H](C(=O)N[C@@H](CC(N)=O)C(=O)N[C@H](C(=O)O)C(C)C)C(C)C)C(C)C` is recorded as -0.0663 (HeLa and HEK-293T cells; phosphatase bead binding, competitive inhibitor, PIB pulldown iBAQ LC-MS/MS, item: FGFR1OP2; concentration not given; baseline: untreated control).
For `COc1ccc2nc3cc(Cl)ccc3c(Nc3cc(CN4CCCC4)c(O)c(CN4CCCC4)c3)c2n1`, the ΔTm was -0.04 °C (kasA; thermal stabilization, nanoDSF; 100 µM).
`Nc1c(Br)cc(Br)cc1CN[C@H]1CC[C@H](O)CC1` has an IC30 of 2.99 µM (Voltage-dependent P/Q-type calcium channel subunit alpha-1A (Homo sapiens, UniProt O00555); ion current, antagonist, automated patch clamp).
The ΔTm of `CCc1nc2ccc(Cl)cn2c1C(=O)Nc1cccc(O)c1F` is reported as 0.04 °C (kasA; thermal stabilization, nanoDSF; 100 µM).
For `Oc1ccc2c3c1O[C@H]1[C@@H](O)CC[C@@]4(O)[C@@H](C2)N(CC2CCC2)CC[C@]314`, “log2 fold change” read -0.00187 (Adhesion G protein-coupled receptor F5 (ADGRF5, Homo sapiens, UniProt Q8IZF2); β-arrestin recruitment, TANGO luminescence, item: GPR116; concentration not given; baseline: basal luminescence).
With `[H]/N=C(/N)N[C@H]1[C@H](O)[C@@H](O)[C@H](O[C@@H]2O[C@@H](C)[C@](O)(C=O)[C@H]2O[C@@H]2O[C@@H](CO)[C@H](O)[C@@H](O)[C@@H]2NC)[C@@H](N/C(N)=N\[H])[C@@H]1O` the ΔTm was -0.01 °C (kasA; thermal stabilization, nanoDSF; 100 µM).
For `O=C(c1ccc(Cl)cc1)N1CCN2C(=O)N(OC(=O)N3CCOc4ccccc43)C(=O)C2C1` (stereo not shown), the median ratio was 1.15 (Acyl-protein thioesterase 1 (Homo sapiens, UniProt O75608); enzyme activity, inhibitor, MS-based ABPP; SW-620 conditioned medium; 10 µM, 1 h, 37 °C; baseline: compound over DMSO, lower = stronger inhibition).
`CC[C@H](C)C(=O)O[C@H]1C[C@@H](C)C=C2C=C[C@H](C)[C@H](CC[C@@H]3C[C@@H](O)CC(=O)O3)[C@H]21` gave a ΔTm of -0.14 °C (kasA; thermal stabilization, nanoDSF; 100 µM).
`O=C(Nc1cnccc1Cl)N1CCN(Cc2ccc3c(c2)OC(F)(F)O3)CC1` — result for “inhibition of binding”: 1% (LTB4R (Homo sapiens, UniProt Q15722); radioligand binding; 10 µM, with: [3H]LTB4).
`C[C@H]1CN(c2n[nH]c3nc(N[C@H]4CC[C@H](NS(=O)(=O)CCC(F)(F)F)CC4)ncc23)CCO1` has a remaining binding of 1.08 (Stalled ribosome sensor GCN1 (Homo sapiens, UniProt Q92616); Kinobeads competition, item: GCN1L1; 0.8 µM, unit not given; baseline: vehicle).
`CN1CCN(c2cc(-c3ccncc3)c(-c3ccc4ccccc4c3)nn2)CC1` gave an inhibition of 0.7% (CHRM1 (Homo sapiens, UniProt P11229); antagonist, FLIPR; 10 µM).
For `CC[C@H](C)[C@H](NC(=O)CNC(=O)[C@@H](N)CCCCN)C(=O)N[C@@H](CC(C)C)C(=O)N[C@@H](CCCCN)C(=O)N[C@@H](CCCNC(=N)N)C(=O)N[C@@H](CCC(=O)O)C(=O)N[C@@H](CCCCN)C(=O)N[C@@H](CCCNC(=N)N)C(=O)N[C@@H](CC(C)C)C(=O)N[C@@H](CCCNC(=N)N)C(=O)N[C@@H](CCCNC(=N)N)C(=O)N[C@@H](CCCCN)C(=O)N[C@@H](CC(N)=O)C(=O)N[C@H](C(=O)N[C@@H](Cc1c[nH]cn1)C(=O)N[C@@H](Cc1c[nH]c2ccccc12)C(=O)N1CCC[C@H]1C(=O)N[C@@H](CCC(=O)O)C(=O)N[C@@H](CCC(=O)O)C(=O)NCC(=O)N[C@@H](CCCCN)C(=O)N[C@@H](CC(C)C)C(=O)N[C@@H](CCCNC(=N)N)C(=O)N[C@@H](CCC(=O)O)C(=O)N[C@@H](Cc1ccccc1)C(=O)N[C@@H](Cc1ccccc1)C(=O)N[C@@H](Cc1ccccc1)C(=O)N[C@@H](Cc1ccccc1)C(=O)N[C@@H](CCC(=O)O)C(=O)N[C@@H](CC(C)C)C(=O)N[C@@H](CC(=O)O)C(=O)N[C@@H](CCC(=O)O)C(=O)N[C@@H](C)C(=O)N[C@@H](CCC(=O)O)C(=O)N[C@@H](CCCNC(=N)N)C(=O)N[C@H](C(=O)N[C@@H](CC(N)=O)C(=O)N[C@H](C(=O)O)C(C)C)C(C)C)C(C)C`, “log2 fold change” read -7.97 (HeLa and HEK-293T cells; phosphatase bead binding, competitive inhibitor, PIB pulldown LC-MS/MS, item: KNL1; concentration not given; baseline: untreated control).

Excerpt of the above:
With `[H]/N=C(/N)N[C@H]1[C@H](O)[C@@H](O)[C@H](O[C@@H]2O[C@@H](C)[C@](O)(C=O)[C@H]2O[C@@H]2O[C@@H](CO)[C@H](O)[C@@H](O)[C@@H]2NC)[C@@H](N/C(N)=N\[H])[C@@H]1O` the ΔTm was -0.01 °C (kasA; thermal stabilization, nanoDSF; 100 µM).
